Published values collected from several papers.
Each line is one published result; not all experiments were run side by side. ± marks the error that the study gave. Converted amounts (≈) assume the structure as drawn.

SMILES	assay	test system	setting	scale	endpoint	value
Cn1cc(Nc2nccc(-c3ccc4c(c3)CN(C3COC3)CC[C@H]4NC(=O)c3cn(C(C)(C)C)nn3)n2)cn1		human, whole blood	50 mg twice daily, day 7	relative to: pre-dose baseline	class-switched memory B cell change	97%
CCNCCCNC/C=C\CNCCCNCC	LC-MS/MS	human cancer patients, plasma	intravenous infusion 60 min, 150 mg, median, cycle 1		AUMC(0-inf)	731 ng·h²/mL
Cc1ccc(NC(=O)c2ccc(CN3CCN(C)CC3)cc2)cc1Nc1nccc(-c2cncc(-c3oncc3C)c2)n1		C57BL/6 mice, male, brain	oral, 100 mg/kg/day, day 1		t1/2	3.8 h
CCn1c(=O)c(-c2cc(NC(=O)Nc3ccccc3)c(F)cc2Br)cc2cnc(NC)cc21	measured: lipase increased	healthy human, matched to moderate hepatic impairment	oral, 50 mg single dose		participants with drug-related TEAE	12.5%
CCCOc1ccc(NC(=O)CN2CCN(C)CC2)cc1-c1nc(CC)c(CC)c(=O)[nH]1		healthy Chinese men	10 mg, supine or semi-supine, added: placebo		AUEC(0-4 h) diastolic BP	-14.6 ± 15.9 h·mmHg
COc1cccc(-c2n[nH]c(SCc3ccccn3)n2)c1OC		Sprague-Dawley rats, both sexes	oral dietary, 10 mg/kg/day, day 7, 12 h		plasma concentration	248 ng/mL
CN[C@H](CC(C)C)C(=O)N[C@H]1C(=O)N[C@@H](CC(N)=O)C(=O)N[C@H]2C(=O)N[C@H]3C(=O)N[C@H](C(=O)N[C@H](C(=O)O)c4cc(O)cc(O)c4-c4cc3ccc4O)[C@H](O)c3ccc(c(Cl)c3)Oc3cc2cc(c3O[C@@H]2O[C@H](CO)[C@@H](O)[C@H](O)[C@H]2O[C@H]2C[C@](C)(N)[C@H](O)[C@H](C)O2)Oc2ccc(cc2Cl)[C@H]1O	mass spectrometry	PBS	7 mg/mL, -80 °C, no decomposition detected		storage stability	≥ 6 months
Cc1nc2cccc(OCC(C)(C)C(=O)NC(C)C)c2c(N)c1C(=O)O		Sprague-Dawley rat, male, plasma	oral, 10 mg/kg, day 7 over day 1, 7-day repeated dosing	relative to: day 7 over day 1	AUClast ratio	2.68 ± 1.88
O=C(O)CCCOc1ccc([18F])cc1-c1cc(-c2ccccc2C(F)(F)F)n(-c2ccccc2)n1	dynamic PET	healthy male C57BL/6J mice, myocardium	intravenous, isoflurane anaesthesia		time to maximum uptake	55 min
NC(=O)N1c2ccccc2C=Cc2ccccc21	measured: investigations (SOC)	human male	oral, dose not given, CTCAE on-treatment AEs		adverse events incidence	7%
CCC(C)n1ncn(-c2ccc(N3CCN(c4ccc(OCC5COC(Cn6cncn6)(c6ccc(Cl)cc6Cl)O5)cc4)CC3)cc2)c1=O (stereo not drawn)		healthy human volunteers	oral, 200 mg, event Dizziness, continued dosing		adverse events	0%
C=CC(=O)Nc1cc(Nc2nccc(-c3cn(C)c4ccccc34)n2)c(OC)cc1N(C)CCN(C)C	measured: ALT increased	EGFR-mutant MET-altered NSCLC patients	oral, dose not given, AE grade ≥3		incidence of treatment-related AEs	0%
CCCCc1ccc(C#Cc2ccc(OCC)cc2)cc1		rat, fetus	5000 ng/mL in perfusate, high dose, mixture of 21 LCMs		median fetal accumulation	0.637 ng/g
C=CCN1CC(=O)N2[C@@H](Cc3ccc(O)cc3F)C(=O)N(Cc3cccc(N4CC(N5CCN(CC)CC5)C4)n3)C[C@@H]2N1C(=O)NCc1ccccc1	measured: Nausea	advanced solid tumour patients	oral, 120 mg twice daily, expansion part, grade ≥3		treatment-related adverse events	0%
CN1CCN(c2cccc3c2CCN(C(=O)/C=C/c2c(-n4cnnn4)ccc(Cl)c2F)[C@@H]3C(=O)Nc2ccc(C(=O)O)cc2)C(=O)C1		healthy human subjects	intravenous infusion, 25 mg/h, 2 h		subjects with serious adverse event	0%
COc1ccc2c(=O)n(C)c(-c3ccccc3)nc2c1		male Sprague-Dawley rat, heart	oral, 30 mg/kg, 0.5 h		tissue concentration	1.92 ng/mL
O=C(N[C@H](Cc1c[nH]c2ccccc12)C(=O)Nc1ccncc1)c1ccc(-c2ccc(F)c(Cl)c2)cc1F		Swiss Webster mouse, female, lung	oral, 50 mg/kg, 8 h, 20% Kolliphor vehicle		concentration	40.9 µM
CC(=O)c1cccc(NC(=O)CSc2nnc(-c3cc4ccccc4cc3O)n2C)c1		aqueous buffer	pH 7.4		thermodynamic solubility	< 7.14 µM
CC(C)C[C@H](NC(=O)CNC(=O)c1cc(Cl)ccc1Cl)B(O)O	measured: Diarrhoea	human newly diagnosed multiple myeloma	oral, dose not given, maintenance, grade 3, onset cycle 17 or later		treatment-emergent adverse events	6%
O=c1c2ccccc2oc2ccccc12		tricaprin-tricaprylin mixture	60 °C, tricaprin fraction 0.17		solubility	0.071 mole fraction
C=CC(=O)Nc1cc(Nc2nccc(-c3cn(C)c4ccccc34)n2)c(OC)cc1N(C)CCN(C)C	storage stability	human plasma	2 h, -80 °C, HQC level		recovery	99%
CCc1cc(C(=O)NC)c2nccc(N3CCc4c(cc(Cn5ccnc5)cc4-c4cn(C)nc4C(F)(F)F)C3=O)c2c1		Sprague Dawley rats	oral, 50 mg/kg once daily, 7 days	relative to: vehicle	serum WBC change	0.23%
O=C(Nc1nc2cccc(-c3ccc(CN4CCS(=O)(=O)CC4)cc3)n2n1)C1CC1	measured: hypotension	human rheumatoid arthritis patients	oral, 300 mg once daily, 4 weeks, regardless of relatedness		treatment-emergent adverse events	0%
N#Cc1ccc2c(c1)[C@H]1CCCN(C(=O)c3ccc4[nH]cnc4c3)[C@H]1C2		human, female	40 mg, day 7		androstenedione level	5.9 nmol/L
CSc1ccccc1C(=O)NCCn1cc(C(=O)NCc2cccc(C)n2)c(=O)c2cc3c(cc21)OC(F)(F)O3		Sprague-Dawley rat, male, plasma	intramuscular, 30 mg/kg of parent compound		Cmax	8.94 ± 3.44 ng/mL
CCCCC/C=C\C/C=C\CCCCCCCC(=O)O.Cc1cc(/C=C/C#N)cc(C)c1Nc1ccnc(Nc2ccc(C#N)cc2)n1		Capryol 90			kinetic solubility	~50 mg/mL
CC(C)C[C@H](NC(=O)[C@@H](Cc1c[nH]c2ccccc12)NC(=O)[C@H](Cc1ccc(O)cc1)NC(=O)[C@H](CO)NC(=O)[C@H](Cc1c[nH]c2ccccc12)NC(=O)[C@H](Cc1c[nH]cn1)NC(=O)[C@@H]1CCC(=O)N1)C(=O)N[C@@H](CCCNC(=N)N)C(=O)N1CCC[C@H]1C(=O)NCC(N)=O		Chinese CPP children, boys	intramuscular, 22.5 mg, 12 months, day 1, month 6		patients, serious adverse events	0%

SMILES	assay	test system	setting	scale	endpoint	value
Cc1ccc(Sc2ccccc2N2CCNCC2)c(C)c1	measured: feeling abnormal	healthy adult women	oral, 10 mg daily, 12 days		participants with TEAE	33.3%
c1ccc(-c2nc(NCc3nccs3)c3ccccc3n2)nc1		Japanese Pharmacopoeia disintegration test solution 2	pH 6.8		kinetic solubility	0.071 mg/mL (≈ 222 µM)
CCOc1c([C@H](C)n2nc(C)c3c(N)ncnc32)cc(Cl)c(F)c1[C@@H]1CNC(=O)C1		patients, monotherapy	oral, 30 mg once daily, cycle 1 day 15		Cmax geometric mean	3.27 µM
Cc1nc(-c2ccc(OCC(C)C)c(C#N)c2)sc1C(=O)O		human, plasma	oral, 40 mg, added: verinurad 10 mg	relative to: test over reference	geometric mean ratio Cmax	98.9
CNC(=O)c1ccc(-c2cnc3ncc(Cc4ccc5ncccc5c4)n3n2)cc1F	measured: Dyspepsia, all grades	cancer patients	oral, 600 mg twice daily, other expansion cohort, any causality		patients with adverse event	17%
COc1ccc([C@@H](O)c2cc(-c3ncnc4cc(N5CCOCC5)ccc34)c(F)cc2Cl)nn1		locally advanced rectal cancer patients	100 mg, added: capecitabine and radiotherapy		fatigue TEAE incidence	83.3%
CNC(=O)c1ccc(-c2cnc3ncc(Cc4ccc5ncccc5c4)n3n2)cc1F		healthy human subjects	oral, 400 mg, Dizziness, all grades, all causality, added: rifampicin 600 mg/day		subjects with adverse event	7.7%
CCN1/C(=C/C(C)=O)Sc2ccc(F)cc21		cynomolgus monkey	oral, 30 mg/kg, 6 h post-dose		QRS duration	36 ± 1 ms
CCN1CCN(Cc2ccc(Nc3ncc(F)c(-c4cc(F)c5nc6n(c5c4)[C@H](C)CCC6)n3)nc2)CC1		human, plasma	50 mg single dose, mean		CL/F	34.2 L/h
COc1ncc(-c2nc3c(n2C(C)C)[C@H](c2ccc(Cl)cc2)N(c2cc(Cl)cn(C)c2=O)C3=O)c(OC)n1		human patients, plasma	oral, 30 mg, cycle 1 day 1, low-dose		median half-life	19.2 h
C[C@@H]1COCCN1c1cc(C2([S@](C)(=N)=O)CC2)nc(-c2cc[nH]c3nccc2-3)n1		Japanese advanced solid tumour patients	oral, 240 mg twice daily, CTCAE grade ≥3		Paronychia incidence	0%
Nc1ncn([C@H]2C[C@H](O)[C@@H](CO)O2)c(=O)n1		processed mouse plasma	1.2 ng/mL, 24 h, 4 °C, re-injection stability		mean deviation from nominal	1.42%
CCCCOc1ccc([C@H]2CC[C@H](CCC)CC2)c(F)c1F		rat, fetus	1000 ng/mL in perfusate, middle dose, mixture of 21 LCMs		median fetal accumulation	0.277 ng/g
O=C(O)CCC(=O)O.[2H]C([2H])([2H])Oc1cc(C)c2[nH]ccc2c1CN1CC[C@@H](C2CC2)C[C@H]1c1ccc(C(=O)O)cc1	multiple ascending dose	healthy Chinese subjects	300 mg once daily		subjects with TEAE Eczema	0%
CC(C)(C(=O)N1CCOc2c(C#N)cncc2C1)C(F)F	measured: Presyncope	human	oral, 20 mg once daily, 14 days, multiple ascending dose		subjects with adverse event	12.5%
CCc1ccc(-c2ccc(-c3cc(F)c(F)c(F)c3)c(F)c2)cc1		rat, placenta	1000 ng/mL in perfusate, middle dose, mixture of 21 LCMs		median placental accumulation	4.9 ng/g
C1=C/COCc2cc(ccc2OCCN2CCCC2)Nc2nccc(n2)-c2cccc(c2)COC/1		rat plasma	2 ng/mL, 24 h, 4 °C	relative to: nominal concentration	stability relative error	-2.26%
O=C(CC1OCCN(Cc2ccccc2)C1=O)Nc1ccc2c(c1)OCCO2 (stereo not drawn)		aqueous buffer	pH 7.4		thermodynamic solubility	119 µM (≈ 45.5 µg/mL)
CCN(CC)Cc1ccc2cc(COC(=O)Nc3ccc(C(=O)NO)cc3)ccc2c1		rat plasma	3200 ng/mL, three freeze-thaw cycles	relative to: nominal concentration	stability relative error	109%
CNCc1ccc(-c2[nH]c3cc(F)cc4c3c2CCNC4=O)cc1		human patients	oral, 480 mg twice daily, all grades		dyspnoea incidence	33.3%
C[C@H]1CN(C(=O)CC#N)[C@]12CCN(c1ncnc3[nH]ccc13)C2		healthy adults, plasma	oral, 6 mg single dose		half-life, mean	2.9 h
NC(=O)N1c2ccccc2CC(O)c2ccccc21 (stereo not drawn)	population PK modelling	human patients, plasma	weight-scaled, no back-conversion		clearance	2.75 L/h
CC(F)(F)c1nc2nc(CO)cc(Nc3ccc(S(F)(F)(F)(F)F)cc3)n2n1	LC-MS/MS	malaria patients, plasma	oral, 250 mg of parent drug		AUC(0-t), metabolite	108 µg·h/mL
C[C@@H]1CCO[C@H]2Cn3cc(C(=O)NCc4ccc(F)cc4F)c(=O)c(O)c3C(=O)N12		human paediatric patients, weight 6 to under sample A kg, plasma	oral, 12.8 mg granules, 24 h, steady state, geometric mean, population PK post-hoc, N 6		trough concentration (C24)	692 ng/mL
CCn1cc(C(=O)N2CCOCC2)c(=O)c2cc(NC3Cc4ccccc4C3)cnc21		human, fed	oral suspension, 600 mg single dose, arithmetic mean		half-life	6.13 h
CN1C(=O)[C@@H](NC(=O)c2nnc(Cc3ccccc3)[nH]2)COc2cccnc21	phase I multiple ascending dose	human, male and female	oral, 600 mg, 14 days		medical device site reaction incidence	12.5%
COc1ccc2c(c1)CN(C(=O)CCN1CCC(Cc3ccccc3)CC1)CC[S@@+]2[O-]	telemetry	conscious male beagle dogs	intravenous, 8 mg/kg, 24 h		QT interval	213 ± 28 ms
